{"data": "Measurements pooled from the literature", "note": "Parts stem from different laboratories: compare values within a part only. Several values in a cell are separate wells, animals, samples, runs or records.", "UniProt Q96SW2, sequence (whole entry, looked up)": "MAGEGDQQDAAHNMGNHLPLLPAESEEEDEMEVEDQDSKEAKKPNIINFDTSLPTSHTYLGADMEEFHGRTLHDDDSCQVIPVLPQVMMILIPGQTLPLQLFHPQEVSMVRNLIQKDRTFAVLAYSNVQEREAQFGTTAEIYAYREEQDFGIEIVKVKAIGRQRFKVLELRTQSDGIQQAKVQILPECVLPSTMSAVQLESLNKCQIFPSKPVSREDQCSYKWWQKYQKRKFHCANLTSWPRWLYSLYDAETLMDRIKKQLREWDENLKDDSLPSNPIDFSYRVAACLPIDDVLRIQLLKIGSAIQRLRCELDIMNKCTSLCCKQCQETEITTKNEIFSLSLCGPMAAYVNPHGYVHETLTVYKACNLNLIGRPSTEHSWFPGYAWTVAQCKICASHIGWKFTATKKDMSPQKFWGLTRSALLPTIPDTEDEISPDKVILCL", "UniProt Q9UKS7, sequence (whole entry, looked up)": "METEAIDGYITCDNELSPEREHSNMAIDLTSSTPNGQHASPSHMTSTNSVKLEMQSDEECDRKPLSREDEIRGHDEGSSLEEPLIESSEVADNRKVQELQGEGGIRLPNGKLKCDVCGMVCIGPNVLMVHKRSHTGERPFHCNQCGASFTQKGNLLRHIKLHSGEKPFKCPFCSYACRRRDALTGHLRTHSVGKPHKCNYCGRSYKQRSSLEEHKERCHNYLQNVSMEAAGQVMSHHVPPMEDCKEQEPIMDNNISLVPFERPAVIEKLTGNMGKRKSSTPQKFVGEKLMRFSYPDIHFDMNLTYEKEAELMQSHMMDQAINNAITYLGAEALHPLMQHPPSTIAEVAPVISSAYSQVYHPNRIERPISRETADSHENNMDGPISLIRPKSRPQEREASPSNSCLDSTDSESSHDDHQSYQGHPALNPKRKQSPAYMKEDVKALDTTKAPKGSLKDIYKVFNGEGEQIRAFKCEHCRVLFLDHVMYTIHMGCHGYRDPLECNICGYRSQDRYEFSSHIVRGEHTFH"}
{"data": "Series 1", "organism": "Leishmania donovani", "technique": "high-content imaging", "strain": "MHOM/IN/80/DD8", "sample": "intracellular amastigotes in THP-1", "concentration": "20 µM"}
{"SMILES": "COc1ccccc1Nc1c2c(nc3ccccc13)CCC2", "inhibition": "inactive"}
{"SMILES": "CC1CCN(CC(=O)Nc2c3c(nc4ccccc24)CCC3)CC1", "inhibition": "inactive"}
{"SMILES": "O=C(CN1CCCCC1)Nc1c2c(nc3ccccc13)CCC2", "inhibition": "inactive"}
{"SMILES": "CCOc1ccc(Nc2c3c(nc4ccc(Cl)cc24)CCC3)cc1", "inhibition": "inactive"}
{"SMILES": "c1ccc2c(NCCCN3CCOCC3)c3c(nc2c1)CCC3", "inhibition": "inactive"}
{"SMILES": "Cc1ccc2nc3c(c(Nc4cccc(O)c4)c2c1)CCC3", "inhibition": "inactive"}
{"SMILES": "O=C(CN1CCOCC1)Nc1c2c(nc3ccccc13)CCC2", "inhibition": "inactive"}
{"SMILES": "COc1ccc(OC)c(Nc2c3c(nc4ccccc24)CCC3)c1", "inhibition": "inactive"}
{"data": "Series 2", "cell line": "Gaucher fibroblasts L444P/L444P", "technique": "4-MUG hydrolysis, cell lysate", "concentration": "10 µM", "reference": "DMSO"}
{"Compound": "Fc1ccc(Nc2nc(NCCN3CCOCC3)nc(N3CCOCC3)n2)cc1", "GCase activity": "104% and 105% and 106% and 109% and 99.7%"}
{"Compound": "Ic1ccc(Nc2nc(NCCN3CCOCC3)nc(N3CCNCC3)n2)cc1", "GCase activity": "1.72% and 8.36% and 2.04% and 6.69% and 7.49% and 6.64%"}
{"Compound": "CCOc1ccc2nc(Sc3nc(N4CCOCC4)nc(N4CCOCC4)n3)sc2c1", "GCase activity": "86.1% and 117% and 120% and 104% and 123%"}
{"Compound": "COc1ccc(Nc2nc(NCCN3CCOCC3)nc(N3CCOCC3)n2)cc1", "GCase activity": "111% and 102% and 104% and 108% and 106% and 107%"}
{"Compound": "Ic1ccc(Nc2nc(NCCCN3CCOCC3)nc(N3CCOCC3)n2)cc1", "GCase activity": "129% and 135% and 124% and 120% and 139% and 121%"}
{"Compound": "Ic1ccc(Nc2nc(NCCc3c[nH]c4ccccc34)nc(NCCN3CCOCC3)n2)cc1", "GCase activity": "106% and 96.5% and 94.2% and 99% and 101%"}
{"Compound": "Ic1ccc(Nc2nc(NCCN3CCOCC3)nc(N3CCCCC3)n2)cc1", "GCase activity": "86.5% and 93.6% and 102% and 90.1% and 92.7% and 87.5%"}
{"Compound": "Ic1ccc(Nc2nc(NCCN3CCOCC3)nc(N3CCCC3)n2)cc1", "GCase activity": "105% and 93.3% and 83.4%"}
{"data": "Series 3", "SMILES": "Cc1nc(C)c(C=[N+]([O-])C(C)(C)C)nc1C", "technique": "HPLC-ECD", "host": "MPTP mouse model", "sample": "striatum"}
{"dose": "10 mg/kg", "striatal DOPAC content": "0.339 ng/mg tissue and 0.271 ng/mg tissue and 0.178 ng/mg tissue and 0.222 ng/mg tissue and 0.328 ng/mg tissue and 0.341 ng/mg tissue and 0.217 ng/mg tissue"}
{"dose": "90 mg/kg", "striatal DOPAC content": "0.216 ng/mg tissue and 0.374 ng/mg tissue and 0.247 ng/mg tissue and 0.351 ng/mg tissue and 0.381 ng/mg tissue and 0.46 ng/mg tissue and 0.321 ng/mg tissue"}
{"dose": "30 mg/kg", "striatal DOPAC content": "0.234 ng/mg tissue and 0.253 ng/mg tissue and 0.196 ng/mg tissue and 0.353 ng/mg tissue and 0.397 ng/mg tissue and 0.23 ng/mg tissue"}
{"data": "Single results of other studies"}
{"Compound": "Cn1cc(-c2cccc(CN3CCC4(CC3)COc3c4ccc4c3CN([C@@H]3CCC(=O)NC3=O)C4=O)c2)cn1", "tested on": "CRBN/Zinc finger protein Helios (Homo sapiens, UniProt Q96SW2+Q9UKS7)", "assay": "degrader, HiBiT", "system": "HEK293", "setting": "333.3 nM", "endpoint": "protein remaining", "result": "9.83% and 9.21%"}
{"Compound": "C=CCN1C(=O)C(O)(C(=O)O)Oc2cc(F)ccc21 (stereo not drawn)", "tested on": "Arabidopsis thaliana", "assay": "hypocotyl length", "system": "Col-0, seedlings", "setting": "50 µg/mL", "endpoint": "inhibition", "result": "26.1%"}
{"note": "A few entries again (series 2):"}
{"Compound": "Ic1ccc(Nc2nc(NCCc3c[nH]c4ccccc34)nc(NCCN3CCOCC3)n2)cc1", "GCase activity": "106% and 96.5% and 94.2% and 99% and 101%"}
{"Compound": "Ic1ccc(Nc2nc(NCCN3CCOCC3)nc(N3CCCCC3)n2)cc1", "GCase activity": "86.5% and 93.6% and 102% and 90.1% and 92.7% and 87.5%"}
{"Compound": "Ic1ccc(Nc2nc(NCCN3CCOCC3)nc(N3CCNCC3)n2)cc1", "GCase activity": "1.72% and 8.36% and 2.04% and 6.69% and 7.49% and 6.64%"}
